Measurements collected from several papers.
Protocols differ between the studies behind these lines. Numbers after ± are the reported error.

SMILES | assay | system | conditions | how to read | quantity | value
Cc1nc(C)c(C=[N+]([O-])C(C)(C)C)nc1C | Western blot, refers to: GSK-3β phospho-Ser9 | mouse, MPTP model | 90 mg/kg |  | protein level increase | 299%
C=C(c1cc(F)c(C(=O)O)c(F)c1)c1cc2c(cc1C)C(C)(C)CCC2(C)C | RNA sequencing, refers to: Mpeg1 | rat, brain | dose not given, 24 h | relative to: vehicle | log2 fold change | -0.54
CC(=O)N/C(N)=N/C(=N\S(=O)(=O)c1ccc(C(F)(F)F)cc1)N1C[C@H](c2ccccc2)C(c2ccc(Cl)cc2)=N1 |  | β-arrestin 2 knockout mouse, diet-induced obese | 3 mg/kg/day, 7 days |  | hyperinsulinaemia | no effect
CN(C)c1ccc(-c2oc3ccccc3c(=O)c2OCc2ccccc2)cc1 |  | diabetic rat | 7.5 mg/kg, day 28, p-nitrophenyl β-glucoside induced |  | blood glucose | 141 ± 4.9 mg/dL
Cc1cc(O)c(C=O)c2c1C(=O)Oc1c(CO)c(O)c3c(c1O2)C(O)OC3=O (stereo not shown) | mating test | rat male, streptozotocin diabetic | 5 mg/kg |  | male fertility | 65%
O=C1/C(=C/c2ccc(O)cc2)Oc2cc(O)c(-c3ccc(O)c(O)c3)c(O)c21 | DPPH scavenging, absorbance |  |  |  | EC50 | 430 µM
O=c1c(OCc2ccccc2)c(-c2ccc([N+](=O)[O-])cc2)oc2ccccc12 |  | diabetic rat | 5 mg/kg, day 1, p-nitrophenyl β-glucoside induced |  | blood glucose | 401 ± 5.02 mg/dL
N=C(N)NCCC[C@H](NC(=O)[C@@H]1CCCN1C(=O)[C@@H]1CSSCCC(=O)N[C@]2(CC[C@@H](c3ccccc3)CC2)C(=O)N[C@@H](Cc2ccccc2)C(=O)N[C@@H](CCC(N)=O)C(=O)N[C@@H](CC(N)=O)C(=O)N1)C(=O)NCC(N)=O | anti-oxytocic activity, antagonist | isolated rat uterus strips | without Mg2+ |  | pA2 | 8.46
CSCC[C@@H]1NC(=O)[C@H](CCCCN)NC(=O)[C@H]([C@@H](C)O)NC(=O)[C@H](CCCCN)NC(=O)[C@H](CC(C)C)NC(=O)[C@H](CCCCN)NC(=O)[C@H](CCCNC(=N)N)NC(=O)[C@@H]2CSSC[C@@H]3NC(=O)[C@@H]4CCCN4C(=O)[C@H](C(C)C)NC(=O)[C@H](CCC(N)=O)NC(=O)[C@H](CCC(N)=O)NC(=O)CNC(=O)[C@H](CC(C)C)NC(=O)[C@@H]4CSSC[C@H](NC(=O)[C@H]([C@@H](C)O)NC(=O)[C@H](C)NC(=O)[C@H](CSSC[C@@H](C(=O)N[C@@H](CO)C(=O)N[C@@H](CCCNC(=N)N)C(=O)N[C@H](C(N)=O)[C@@H](C)O)NC(=O)[C@@H]5CCCN5C(=O)[C@H](CC(N)=O)NC1=O)NC(=O)[C@@H]1CCCN1C(=O)[C@H](CC(=O)O)NC(=O)[C@H](CSSC[C@H](NC(=O)[C@H](CCCNC(=N)N)NC(=O)[C@H](CCCNC(=N)N)NC(=O)[C@H](CO)NC(=O)[C@@H](N)CO)C(=O)N[C@@H](C(C)C)C(=O)N[C@@H](CCCNC(=N)N)C(=O)N[C@@H](CC(C)C)C(=O)N[C@@H](Cc1c[nH]cn1)C(=O)N[C@@H](CCC(=O)O)C(=O)N[C@@H](CO)C(=O)N4)NC3=O)C(=O)N[C@@H](Cc1ccc(O)cc1)C(=O)N[C@H]1CSSC[C@H](NC(=O)[C@H](Cc3ccccc3)NC(=O)[C@H](C)NC(=O)[C@H](CC(N)=O)NC(=O)[C@H](Cc3ccccc3)NC(=O)[C@H](Cc3ccccc3)NC(=O)[C@H](CCCNC(=N)N)NC1=O)C(=O)N[C@@H](Cc1ccc(O)cc1)C(=O)N2 |  | male Long-Evans rats | intracerebroventricular, 1.0 nmol, 24 h | relative to: wild-type AgRP | food intake increase | ~50%
COc1cccc(OCCN2CCC[C@H](CN3CCc4cc(OC)c(OC)cc4CC3=O)C2)c1 | open field test | male and female C57BL/6J mice | intraperitoneal, 5 mg/kg | relative to: saline | locomotion velocity and distance | no effect
CCOC(=O)c1nc2cc(Cl)c(Cl)cc2nc1N1CCN(C(=O)Nc2ccc(N3CCNCC3)cc2)CC1 | H&E staining | mouse, DSS-induced colitis, colon | intraperitoneal, 10 or 5 mg/kg/day |  | colon histopathology damage | decreased
CCCCCCCOC(=O)Cc1c(C)n(C(=O)c2ccc(Cl)cc2)c2ccc(OC)cc12 | hot plate test | BALB/c mice | 100 mg/kg, 0 min |  | latency of nociceptive response | 10.1 ± 1.02 s
CC(=O)[O-].O.[Cu+2].[O-]c1ccc(Br)cc1C=NCCN1CCOCC1 | nitric oxide scavenging |  | 240 µM |  | inhibition | 64.2%
COc1ccc(-c2oc3ccccc3c(=O)c2OCc2ccccc2)cc1 |  | diabetic rat | 7.5 mg/kg, day 7, p-nitrophenyl β-glucoside induced |  | blood glucose | 310 ± 5.1 mg/dL
CCCCCCOC(=O)Cc1c(C)n(C(=O)c2ccc(Cl)cc2)c2ccc(OC)cc12 | hot plate test | BALB/c mice | 50 mg/kg, 0 min |  | latency of nociceptive response | 9.54 ± 0.32 s
CCOc1ccc(C[C@@H]2NC(=O)[C@@H](N)CSSC[C@@H](C(=O)N3CCC[C@H]3C(=O)N[C@@H](CC(C)C)C(=O)NCC(N)=O)NC(=O)[C@H](CC(N)=O)NC(=O)[C@H](CCC(N)=O)NC(=O)[C@H]([C@@H](C)CC)NC2=O)cc1 | antagonist | Bufo marinus urinary bladder | added: [5-ornithine]-oxytocin |  | pA2 | 6.6
O=c1c(OCc2ccccc2)c(-c2cccc([N+](=O)[O-])c2)oc2ccccc12 |  | diabetic rat | 7.5 mg/kg, day 14, p-nitrophenyl β-glucoside induced |  | blood glucose | 241 ± 4.9 mg/dL
CC1=C(O)C(=O)C=C2C1=CC=C1[C@@]2(C)CC[C@@]2(C)[C@@H]3C[C@](C)(C(=O)NCCOCCOCCOCCOCC(=O)N[C@H](C(=O)N4C[C@H](O)C[C@H]4C(=O)N[C@@H](C)c4ccc(-c5scnc5C)cc4)C(C)(C)C)CC[C@]3(C)CC[C@]12C | flow cytometry | mouse, B16-F10 melanoma model, tumour | ip, 2 doses of 1.8 mg/kg, day 7, dosed days 1 and 4 |  | tumour-infiltrating B cells (B220+) | 30.1%
C[C@@H](O)[C@@H]1NC(=O)[C@H](CCCCN)NC(=O)[C@@H](Cc2ccc(NC(N)=O)cc2)NC(=O)[C@H](Cc2ccc(NC(=O)[C@@H]3CC(=O)NC(=O)N3)cc2)NC(=O)[C@H](NC(=O)[C@H](Cc2ccc(Cl)cc2)NC(=O)CN2CCN(CC(=O)O)CCN(CC(=O)O)CCN(CC(=O)O)CC2)CSSC[C@@H](C(=O)N[C@H](Cc2ccc(O)cc2)C(N)=O)NC1=O [gallium-68 labelled] | PET/CT | human neuroendocrine tumour patients, lung lesions | 60 min |  | SUVpeak | 11

SMILES | assay | system | conditions | how to read | quantity | value
Cc1ccc(-c2oc3ccccc3c(=O)c2OCc2ccccc2)cc1 |  | diabetic rat | 7.5 mg/kg, day 14, p-nitrophenyl β-glucoside induced |  | blood glucose | 278 ± 4.98 mg/dL
COc1cc2c(cc1OC)-c1cc3ccc(OC)c(OC)c3c[n+]1CC2 |  | rat, STZ-induced diabetic, serum | oral, 12 mg/kg, day 28 |  | urea | 46.1 ± 1.8 mg/dL
COc1ccc(C2CC(c3ccc(C)cc3)=Nc3ccccc3S2)cc1 (stereo not shown) |  | Wistar rat, STZ-induced diabetes, serum | 20 mg/kg, 28 days |  | triglycerides | 113 ± 4.15 mg/dL
CC[C@@H](C)N([11CH3])C(=O)c1nc(-c2ccc(Cl)cc2)c2ccccc2n1 | PET from VT | rhesus monkey, cerebellum | dose not given |  | TSPO specific binding | 87%
CC(C)C[C@@H]1NC(=O)[C@@H]2CSSC[C@@H]3NC(=O)[C@H]([C@@H](C)O)NC(=O)[C@H](C)NC(=O)[C@H](C)NC(=O)[C@@H]4CCCN4C(=O)[C@H](CC(=O)O)NC(=O)[C@H](CSSC[C@H](NC(=O)[C@H](CCCNC(=N)N)NC(=O)[C@H](CCCNC(=N)N)NC(=O)[C@H](CO)NC(=O)[C@@H](N)CO)C(=O)N[C@@H](C(C)C)C(=O)N[C@@H](CCCNC(=N)N)C(=O)N[C@@H](CC(C)C)C(=O)N[C@@H](Cc4c[nH]cn4)C(=O)N[C@@H](CCC(=O)O)C(=O)N[C@@H](CO)C(=O)N2)NC(=O)[C@H](CSSC[C@@H](C(=O)N[C@@H](CCCNC(=N)N)C(N)=O)NC(=O)[C@H](Cc2ccc(O)cc2)NC(=O)[C@@H]2CSSC[C@H](NC(=O)[C@H](Cc4ccc(O)cc4)NC3=O)C(=O)N[C@@H](CCCNC(=N)N)C(=O)N[C@@H](Cc3ccccc3)C(=O)N[C@@H](Cc3ccccc3)C(=O)N[C@@H](CC(N)=O)C(=O)N[C@@H](C)C(=O)N[C@@H](Cc3ccccc3)C(=O)N2)NC(=O)[C@@H]2CCCN2C(=O)[C@H](C(C)C)NC(=O)[C@H](CCC(N)=O)NC(=O)[C@H](CCC(N)=O)NC(=O)CNC1=O |  | Long-Evans rat, male | intracerebroventricular, 1.0 nmol in 1.0 µL, 24 h, non-cumulative | relative to: saline | food intake | 64.3 ± 5.4 % above saline
CCc1nnc(NS(=O)(=O)c2ccc(NC(=S)NC(=O)/C=C/c3ccc(F)cc3)cc2)s1 | immunostaining | athymic nude mouse, BE(2)-C xenograft, tumour | ip, 20 mg/kg daily, 3 weeks |  | cleaved PARP level | increased
CC[C@H]1[C@@H](O)[C@@H]2[C@H](CC[C@]3(C)[C@@H]([C@H](C)CCOS(=O)(=O)[O-])CC[C@@H]23)[C@@]2(C)CC[C@@H](O)C[C@@H]12.[Na+] | EchoMRI | ob/ob NASH mouse model | oral, 3 mg/kg once daily, 8 weeks | relative to: body weight | whole-body fat mass | 40.4 ± 0.9%
CC(C)(O)c1ncc([S@](N)(=O)=NC(=O)Nc2c3c(cc4c2CCC4)CCC3)s1 | IL-1β release, Bayesian PK/PD model | healthy humans, whole blood ex vivo | Emax estimated, added: LPS |  | Hill coefficient | 0.758
N#Cc1c(Nc2ccccc2C(F)(F)F)s[nH]c1=O |  | mouse, sciatic nerve axotomy, plasma | intraperitoneal, 30 mg/kg, two doses, 15 h | relative to: vehicle | plasma NfL decrease | -60%
CN(C)c1ccc2c(-c3cc(C(=O)N4CCN(CCCOc5ccc6nccc(C(=O)NCC(=O)N7CC(F)(F)C[C@H]7C#N)c6c5)CC4)ccc3C(=O)[O-])c3ccc(=[N+](C)C)cc-3oc2c1 | flow cytometry | mouse B16-F10 tumour, tumour | intravenous, dose not given, 1 h |  | labelled tumour cells | < 0.1%
O=C([O-])CN1CCN(CC(=O)[O-])CCN(CC(=O)NC[C@H]2CC[C@H](C(=O)N[C@H](Cc3cnc4ccccc4c3)C(=O)NCCCC[C@H](NC(=O)N[C@@H](CCC(=O)O)C(=O)O)C(=O)O)CC2)CCN(CC(=O)[O-])CC1.[64Cu+2] |  | prostate cancer patients, biopsy cores | below 66 CPM cut-off |  | false-negative cores | 14%
COC(=O)C(Cc1c[nH]cn1)NC(=O)C1(C)C(O)CCC2(C)C1CCC1(C)C2CC=C2C3C(C)C(C)CCC3(C)CCC21C (stereo not shown) |  | rat TNBS-induced colitis | oral, dose not given, day 9 | direction not given | clinical activity score | 1.55 ± 1.07
COc1ccc(C2CC(c3ccc(C)cc3)=Nc3ccccc3S2)cc1OC (stereo not shown) |  | Wistar rat, STZ-induced diabetes, serum | 20 mg/kg, 28 days |  | triglycerides | 112 mg/dL
Cc1ccc(-c2nc3cc(F)ccc3[nH]2)o1 | ABTS scavenging, absorbance |  |  |  | IC50 | 1.37 µM
CC/C=C\C/C=C\C/C=C\C/C=C\C/C=C\CCCCOC(CC)C(=O)O (stereo not shown) | oral glucose tolerance test | ob/ob mice | dose not given, 5 weeks, 4 h fasted, 0-120 min, added: glucose 2 g/kg po |  | reduction of glucose AUC | 60%
O=c1c(OCc2ccccc2)c(-c2ccc(Cl)cc2)oc2ccccc12 |  | diabetic rat | 5 mg/kg, day 28, p-nitrophenyl β-glucoside induced |  | blood glucose | 136 ± 4.51 mg/dL
COc1cc(CN2CCN(c3ccc(Cl)cc3)CC2)c2cc3[n+](cc2c1O)CCc1cc2c(cc1-3)OCO2 | ABTS scavenging, absorbance |  | 10 min |  | IC50 | 5.82 µg/mL
CCN(CC)CCn1nc(C23CC4CC(CC(C4)C2)C3)n(C)c1=S | paw oedema | rat | intraperitoneal, 40 mg/kg |  | inhibition in vivo | 29.5%

A few entries again:
SMILES | assay | system | conditions | how to read | quantity | value
CC[C@H]1[C@@H](O)[C@@H]2[C@H](CC[C@]3(C)[C@@H]([C@H](C)CCOS(=O)(=O)[O-])CC[C@@H]23)[C@@]2(C)CC[C@@H](O)C[C@@H]12.[Na+] | EchoMRI | ob/ob NASH mouse model | oral, 3 mg/kg once daily, 8 weeks | relative to: body weight | whole-body fat mass | 40.4 ± 0.9%
CC(C)(O)c1ncc([S@](N)(=O)=NC(=O)Nc2c3c(cc4c2CCC4)CCC3)s1 | IL-1β release, Bayesian PK/PD model | healthy humans, whole blood ex vivo | Emax estimated, added: LPS |  | Hill coefficient | 0.758
